Results from different studies.
Protocols differ between the studies behind these lines. ± gives the spread as reported.
FGFR1: Fibroblast growth factor receptor 1 (FGFR1, Homo sapiens, UniProt P11362)
TMPRSS11D: Transmembrane protease serine 11D (TMPRSS11D, Homo sapiens, UniProt O60235)
Mycosin-1: Mycosin-1 (Mycolicibacterium thermoresistibile, UniProt G7CDQ2)
AGTR1: Type-1 angiotensin II receptor (AGTR1, Homo sapiens, UniProt P30556)

Compound	target	assay	system	conditions	scale	inhibition
COC(=O)c1cccc(-c2cc(C)c3ncc(C(N)=O)c(Nc4cccc(OC)c4)c3c2)c1	PDEB1 (Trypanosoma brucei, UniProt Q8WQX9)	enzyme activity, inhibitor		10 µM		94%
COc1cc2ncc3c(c2cc1-c1cnn(C)c1)n(-c1ccc(C#N)cc1F)c(=O)n3C	FMS kinase (CSF1R)	enzyme activity, inhibitor		1 µM		> 50%
OC(c1cccc(OC(F)(F)F)c1)c1c[nH]c2ncc(C(F)(F)F)cc12 (stereo not drawn)	FGFR1	enzyme activity, inhibitor		1 µM		22%
Oc1c(C(Nc2nc3ccccc3s2)c2cccc(OCc3ccccc3)c2)ccc2cccnc12 (stereo not drawn)	Genome polyprotein, protease (Dengue virus type 2, UniProt P14340)	enzyme activity, inhibitor, fluorescence		25 µM		90.6%
OC(c1ccc2c(c1)OC(F)(F)O2)c1c[nH]c2ncc(C(F)(F)F)cc12 (stereo not drawn)	FGFR1	enzyme activity, inhibitor		1 µM		11%
CCCCCCCCc1ccc(CC[C@@](N)(/C=C/P(=O)(O)O)CO)cc1	SPHK1 (Homo sapiens, UniProt Q9NYA1)	enzyme activity, inhibitor		50 µM		40%
Cc1c(-c2c3c(N)n[nH]c(=O)c3nn2-c2ccccc2)oc2c(F)cccc12	FGFR1	enzyme activity, inhibitor, ELISA		0.1 µM		78.6%
N#Cc1c(NC(=O)CN2CCOCC2)sc2c1CCC(c1ccccc1)C2 (stereo not drawn)	LDHA (Homo sapiens, UniProt P00338)	enzyme activity, inhibitor, fluorescence		100 µg/mL		25.6%
CCCCC(C)Sc1nc2c([nH]1)c(=S)n(C)c(=O)n2C (stereo not drawn)	Androgen receptor (AR, Homo sapiens, UniProt P10275)	reporter gene	HeLa-A6	10 µM, together with: dihydrotestosterone		inactive
N[C@@H]1CCCc2c1[nH]c1ccc(Cl)cc21	SLC6A4 (Homo sapiens, UniProt P31645)	ligand displacement, radioligand		10 µM		98.4%
Cc1ccc(CC(=O)N/N=C/c2cc(Br)c(O)c(Br)c2O)cc1	CFTR (Homo sapiens, UniProt P13569)	apical Cl- current	FRT	50 µM		54%
FC(F)(F)c1cnc2[nH]cc(Cc3ccc(Cl)c(C(F)(F)F)c3)c2c1	FGFR1	enzyme activity, inhibitor		1 µM		16%
Cc1sc2c(c1C)C(c1ccc(Cl)cc1)=N[C@@H](CC(=O)NCCCCNC(=O)COc1cccc3c1C(=O)N(C1CCC(=O)NC1=O)C3=O)c1nnc(C)n1-2 (stereo partly drawn)	von Hippel-Lindau disease tumor suppressor, with elongin B/C (VHL, Homo sapiens, UniProt P40337)	TR-FRET		2.1 pM to 30 µM, 90 min		inactive
CC(C)C1C=C2CCC3C(C)(C(=O)O)CCCC3(C)C2CC1 (stereo not drawn)	RPA1 (Homo sapiens, UniProt P27694)	helix destabilization, EMSA dsDNA probe		200 µM		no effect
NCc1ccc(NC(=O)c2ccc(F)cc2O)cc1	TMPRSS11D	enzyme activity, fluorogenic substrate		10 µM, together with: Boc-VPR-AMC		< 20%
CN(C)S(=O)(=O)c1cc(C(=O)O)ccc1NCCCCCCCC(F)(F)F	SLC12A2 (Homo sapiens, UniProt P55011)	chloride influx	HEK293 transfected with SLC12A2	10 µM	reference: DMSO	31.8 ± 5.4%
CC(=O)Oc1ccccc1C(=O)[O][Pt]([NH2])([NH2])([Cl])([Cl])[O]C(=O)C(Cl)Cl	PTGS2 (Homo sapiens, UniProt P35354)	enzyme activity, COX activity kit	PSN1	1 µM, 24 h		~9%
C/C(=N\NC(=N)N)c1ccc(N)cc1	Mycosin-1	protease activity, inhibitor, quenched fluorescent peptide		150 µM, together with: 20 µM fluorogenic peptide substrate	reference: DMSO control	52.5%

Compound	target	assay	system	conditions	scale	inhibition
CC(C)(C)c1ccc(O)c(C(=O)Nc2ccc(CN)cc2)c1	TMPRSS11D	enzyme activity, fluorogenic substrate		10 µM, together with: Boc-VPR-AMC		< 20%
CCOC(=O)NS(=O)(=O)c1sc(CC(C)C)cc1-c1ccc2c(c1)CN(CC)C(=O)C2(C)C	AGTR1	ligand displacement, radioligand		10 µM, cell membranes		15%
Cc1ccc(C(=O)Nc2ccc(CN)cc2)c(O)c1	TMPRSS2 (Homo sapiens, UniProt O15393)	enzyme activity, inhibitor, fluorescence		10 µM		79.7%
NC(=O)c1ccc(C(=O)NOCc2ccc(Sc3cccc(Cl)c3)c(C(F)(F)F)c2)cc1	HDAC3 (Homo sapiens, UniProt O15379)	cell-free assay, inhibitor		100 µM		13.6%
C/C(CC(=O)Nc1ccc([N+](=O)[O-])cc1)=N\NC(N)=O	Mycosin-1	protease activity, inhibitor, quenched fluorescent peptide		150 µM, together with: 20 µM fluorogenic peptide substrate	reference: DMSO control	57.3%
CCCCOC(=O)NS(=O)(=O)c1sc(CC(C)C)cc1-c1ccc(F)c(Cn2ccnc2)c1	AGTR1	ligand displacement, radioligand		10 µM, cell membranes		8%
OC(c1ccc(Cl)c(C(F)(F)F)c1)c1c[nH]c2ncc(C(F)(F)F)cc12 (stereo not drawn)	FGFR1	enzyme activity, inhibitor		1 µM		17%
Cc1cc(O)c(C=O)c2c1C(=O)Oc1c(CO)c(O)c3c(c1O2)C(O)OC3=O (stereo not drawn)	PDE5A (Homo sapiens, UniProt O76074)	enzyme activity, inhibitor		10 µg/mL		85.3%
NCc1ccc(NC(=O)c2cc3ccccc3cc2O)cc1	TMPRSS11D	enzyme activity, fluorogenic substrate		10 µM, together with: Boc-VPR-AMC		< 20%
Cc1ccc([N+](=O)[O-])cc1S(=O)(=O)N(C)/N=C/c1cnc2ccc(Br)cn12	MAPK12 (Homo sapiens, UniProt P53778)	enzyme activity, inhibitor, radiometric		0.2 µM		59%
Cc1nn(CCO)c2ncc(C(=O)c3cc(Cl)ccc3O)cc12	Heat shock protein HSP 90-beta, N-terminal domain (HSP90AB1, Homo sapiens, UniProt P08238)	binding, fluorescence polarization		10 µM, together with: FITC-geldanamycin		38 ± 3%
COc1cc(C(=O)NC2CCC(N3CCN(CC4CCC5(CCCC5)C4)CC3)CC2)c(F)cc1Nc1ncc2c(n1)N(C1CCCC1(F)F)CC(F)(F)C(=O)N2C (stereo not drawn)	TYRO3 (Homo sapiens, UniProt Q06418)	cell-free assay, TR-FRET		10 µM		0.9%
OC(c1cc(F)ccc1F)c1c[nH]c2ncc(C(F)(F)F)cc12 (stereo not drawn)	FGFR1	enzyme activity, inhibitor		0.1 µM		19%
CCCCOC(=O)NS(=O)(=O)c1sc(CC(C)C)cc1-c1cccc(CN(CC)C(C)=O)c1	AGTR1	ligand displacement, radioligand		10 µM, cell membranes		22%
CC(C)c1ccc(C(=O)Nc2ccc(CN)cc2)c(O)c1	TMPRSS11D	enzyme activity, inhibitor, fluorescence		10 µM		35%
FC1(F)Oc2ccc(Cc3c[nH]c4ncc(C(F)(F)F)cc34)cc2O1	FGFR1	enzyme activity, inhibitor		0.1 µM		19%
CCn1c2ccccc2c2cc(CN[C@H]3CC[C@H](NC(=O)c4cc5ccccc5[nH]4)CC3)ccc21	DRD2 (Homo sapiens, UniProt P14416)	cell-free assay, inhibitor		10 µM		15.6%
NCc1ccc(NC(=O)c2cc(Br)ccc2O)cc1	TMPRSS11D	enzyme activity, fluorogenic substrate		10 µM, together with: Boc-VPR-AMC		< 20%

Excerpt of the above:
Compound	target	assay	system	conditions	scale	inhibition
CN(C)S(=O)(=O)c1cc(C(=O)O)ccc1NCCCCCCCC(F)(F)F	SLC12A2 (Homo sapiens, UniProt P55011)	chloride influx	HEK293 transfected with SLC12A2	10 µM	reference: DMSO	31.8 ± 5.4%
CC(=O)Oc1ccccc1C(=O)[O][Pt]([NH2])([NH2])([Cl])([Cl])[O]C(=O)C(Cl)Cl	PTGS2 (Homo sapiens, UniProt P35354)	enzyme activity, COX activity kit	PSN1	1 µM, 24 h		~9%
